Results pooled from the literature.
Lines come from different studies, so protocols differ. Numbers after ± are the reported error. Values after ≈ are worked out from the molar mass of the structure shown.
Organism: Candida albicans

| Compound | test | test system | conditions | scale | quantity | result |
| --- | --- | --- | --- | --- | --- | --- |
| Fc1ccccc1N/N=C/c1ccc(-c2cccc(/C=N/Nc3ccccc3F)c2)cc1 |  | ATCC MYA-2876 susceptible |  | baseline: mammalian CC50 over MIC | selectivity index | < 0.5 |
| CC(C)c1ccc(/C=C2\NC(=S)N(c3ccccc3)C2=O)cc1 |  | ATCC 10231 | concentration not given |  | inhibition zone diameter | 12 ± 0.16 mm |
| COc1ccc(N2N=C(C(C)=O)SC2=C(C#N)C(=O)c2ccc(Nc3cnccn3)cc2)cc1 |  | ATCC 10231 | concentration not given |  | inhibition zone diameter | 28 mm |
| C[C@@H]1[C@H](O)[C@@H](C)/C=C/C=C/C=C/C=C/C=C/C=C/C=C/[C@H](O[C@@H]2O[C@H](C)[C@@H](O)[C@H](N)[C@@H]2O)C[C@@H]2O[C@](O)(C[C@@H](O)C[C@@H](O)[C@H](O)CC[C@@H](O)C[C@@H](O)CC(=O)O[C@H]1C)C[C@H](O)[C@H]2C(=O)O |  | SP3902, RPMI MOPS | 48 h, 37 °C |  | MIC | 0.5 µM |
| CC(C)c1ccc(/C=C2\N/C(=N/c3ccccc3)N(N)C2=O)cc1 |  | ATCC 10231 | concentration not given |  | inhibition zone diameter | 11 ± 0.47 mm |
| C[C@@H]1[C@H](O)[C@@H](C)/C=C/C=C/C=C/C=C/C=C/C=C/C=C/[C@H](O[C@@H]2O[C@H](C)[C@@H](O)[C@H](N)[C@@H]2O)C[C@@H]2O[C@](O)(C[C@@H](O)C[C@@H](O)[C@H](O)CC[C@@H](O)C[C@@H](O)CC(=O)O[C@H]1C)C[C@H](O)[C@H]2C(=O)O |  |  | concentration not given, lipid-supplemented medium, added: ergosterol, PC or PI supplement |  | antifungal activity | no effect |
| CCOC(=O)CSC1=N/C(=C\c2ccc(C(C)C)cc2)C(=O)N1c1ccccc1 |  | ATCC 10231 | concentration not given |  | inhibition zone diameter | 11 ± 0.57 mm |
| C(=N\Nc1ccccc1)/c1ccc(-c2ccc(/C=N/Nc3ccccc3)cc2)cc1 |  | ATCC MYA-1003 |  | baseline: CC50 over MIC | selectivity ratio | < 0.6 |
| Cl.Oc1cccc2c1[nH]c1c(C3=CC4(O)CC/C=C\CCCCN5CCC3C3(CC6/C=C\CCCCN6C43)C5)nccc12 (single isomer, unassigned; (+)) | growth | ATCC 90028 |  |  | IC50 | 3 ± 0.01 µg/mL |
| OC(Cn1cncn1)(Cn1cncn1)c1ccc(F)cc1F |  | ATCC 60193 | 1 × MIC, 12 h |  | viable cell reduction | 40 to 45% |
| CC(=O)ON=C1C=CC(=C(C#N)c2ccccc2)C=C1 | planktonic growth |  | concentration not given, MIC, 2 and 4 |  | growth rate | decreased |
| CCCCCOc1ccc(-c2ccc(-c3ccc(C(=O)N[C@H]4C[C@@H](O)[C@@H](OCC[N+](C)(C)C)NC(=O)[C@@H]5[C@@H](O)[C@@H](C)CN5C(=O)[C@H]([C@@H](C)O)NC(=O)[C@H]([C@H](O)[C@@H](O)c5ccc(O)cc5)NC(=O)[C@@H]5C[C@@H](O)CN5C(=O)[C@H]([C@@H](C)O)NC4=O)cc3)cc2)cc1 |  | 98-17, neutropenic mice, disseminated candidiasis | dose not given, 24 h AUC over 7 days |  | free AUC/MIC for 1-log kill | 6.4 |
| Fc1cccc(N/N=C/c2ccc(-c3cccc(/C=N/Nc4cccc(F)c4)c3)cc2)c1 |  | ATCC MYA-2310 susceptible |  | baseline: mammalian CC50 over MIC | selectivity index | < 0.4 |
| OC(Cn1cncn1)(Cn1cncn1)c1ccc(F)cc1F | broth microdilution | 348 | 24 h, compound alone |  | MIC | 1 µg/mL |
| OC(Cn1cncn1)(Cn1cncn1)c1ccc(F)cc1F | EUCAST | YMS_102.2 | 48 h |  | MIC50 | 100 µM (≈ 30.6 µg/mL) |
| O=c1c2cc(Cl)ccc2[nH]c(=S)n1Cc1cccnc1 |  |  |  |  | MIC90 | > 100 µM |

Excerpt of the above:
| Compound | test | test system | conditions | scale | quantity | result |
| --- | --- | --- | --- | --- | --- | --- |
| Cl.Oc1cccc2c1[nH]c1c(C3=CC4(O)CC/C=C\CCCCN5CCC3C3(CC6/C=C\CCCCN6C43)C5)nccc12 (single isomer, unassigned; (+)) | growth | ATCC 90028 |  |  | IC50 | 3 ± 0.01 µg/mL |
| OC(Cn1cncn1)(Cn1cncn1)c1ccc(F)cc1F |  | ATCC 60193 | 1 × MIC, 12 h |  | viable cell reduction | 40 to 45% |
